Experimental data pooled from the literature.
Each numbered part is a random draw from the data of one study; scales do not carry over between parts. Substitutions count along the parent as printed.

Series 1 — target: CCNB3, cyclin fold, Cln2 fusion (human); method: yeast growth competition, sequencing; matrix: yeast; setting: strong parent motif; baseline: not given; direction: higher = stronger binding; measurement: normalised enrichment score
Starting sequence: E2F1 docking peptide (human); PPVKRRLDFETDH; partner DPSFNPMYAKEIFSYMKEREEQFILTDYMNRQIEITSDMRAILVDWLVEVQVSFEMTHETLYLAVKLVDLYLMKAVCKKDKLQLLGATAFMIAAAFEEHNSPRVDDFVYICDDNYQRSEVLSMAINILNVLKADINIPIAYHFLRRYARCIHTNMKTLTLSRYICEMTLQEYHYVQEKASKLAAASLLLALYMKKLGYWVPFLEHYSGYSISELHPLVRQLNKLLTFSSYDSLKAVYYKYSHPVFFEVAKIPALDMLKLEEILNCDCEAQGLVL
PPVKRRLDFEDDH [T11D]: 1.96
PPVKRRLDFFTDH [E10F]: 1.47
PPVKRRLDFETPH [D12P]: 3.52
PPVKVRLDFETDH [R5V]: 0.108
PPVKRRLDFRTDH [E10R]: 2.13
PPVKWRLDFETDH [R5W]: 0.0825
PPVKRRLDFETTH [D12T]: 2.83
PPVKRRLDFENDH [T11N]: 2.41
PPVKRRLDFETMH [D12M]: 3.09
PPVKRRLDFHTDH [E10H]: 2.16

Series 2 — method: protein-binding microarray; molecule type: double-stranded DNA, one strand shown; matrix: in vitro; concentration: 250 nM; setting: 60-bp whole probe; added: salmon DNA 0.4 mg/ml; baseline: random background probes; direction: higher = stronger binding; measurement: log fluorescence; all sequences stand within: GCCTAGCAC … GTCTTGATTCGCTTGACGCTGCTG
Target: Interferon regulatory factor 5, full length, phosphomimetic (IRF5, Homo sapiens, UniProt Q13568-2, residues 1-514, K96S/S451D/S453D/S456D/S462D)
GACAGTATCGGTCTCGGGACGTGCTAG: 7.79 z-score
CTGCATCTGATTTCTCAAACAGTGCTA: 0.138 z-score
GACGGTCTCCAACTGCTGACGTGCTAG: -0.587 z-score
GACAAACTGAGTTTCGAGACGTGCTAG: 5.28 z-score
TTAGAACTGGGCTATCGATTAGTGCTA: 2.16 z-score
TTAGGTTACGGTATCGGTTAGTGCTAG: 4.59 z-score
TCAATTTTCGTTTTGTGACTGTGCTAG: 5.24 z-score
TTAGGTATCAACTTTCGGTTAGTGCTA: 9.84 z-score
TCACCTGTCCATTCCTTACTGTGCTAG: 0.539 z-score
TTAGGACTGGGACAGGGTTAGTGCTAG: -0.57 z-score
GTAGGTATCCTACTGCTTTAGTGCTAG: -0.242 z-score

Series 3 — method: universal PBM; molecule type: double-stranded DNA, one strand shown; matrix: in vitro; concentration: not given; direction: higher = stronger binding; measurement: E-score
Target: Sal-like protein 4, full length isoform B (SALL4, Homo sapiens, UniProt Q9UJQ4-2, residues 1-616)
Setting: 8-mer, flanks averaged, mean of replicates
Residues (chain): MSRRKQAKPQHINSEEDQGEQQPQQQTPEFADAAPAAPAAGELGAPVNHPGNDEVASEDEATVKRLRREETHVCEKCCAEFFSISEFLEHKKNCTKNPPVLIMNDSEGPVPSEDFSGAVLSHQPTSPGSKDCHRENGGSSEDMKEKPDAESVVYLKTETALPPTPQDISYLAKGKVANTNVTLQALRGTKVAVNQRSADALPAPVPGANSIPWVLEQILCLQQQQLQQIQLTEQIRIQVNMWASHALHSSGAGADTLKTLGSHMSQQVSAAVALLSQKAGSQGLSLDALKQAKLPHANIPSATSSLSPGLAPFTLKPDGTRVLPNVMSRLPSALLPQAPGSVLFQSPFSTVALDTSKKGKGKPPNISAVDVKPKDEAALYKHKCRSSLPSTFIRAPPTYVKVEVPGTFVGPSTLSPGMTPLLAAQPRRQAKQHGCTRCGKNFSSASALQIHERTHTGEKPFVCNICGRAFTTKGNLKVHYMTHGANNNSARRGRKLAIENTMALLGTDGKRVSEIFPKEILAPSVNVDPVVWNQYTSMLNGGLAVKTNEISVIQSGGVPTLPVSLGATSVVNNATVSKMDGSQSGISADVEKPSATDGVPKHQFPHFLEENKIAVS
GATGTGAC: -0.0693
AAACATTT: 0.327
CGCTATGC: -0.204
CACGTCAG: -0.169
CACGACCA: -0.111
CTCAGTTA: -0.00521
ACATCAGG: 0.0985
AGGTGTGA: -0.0429
GACAACAC: -0.006

Single results of other studies
PhoQ, residues 284 288 289 292 302 303 TSTLRA
fold induction (PhoP, residues 12 14 15 18 19 LWHSL (Escherichia coli, UniProt P23836); Sort-seq, measured: YFP reporter; E. coli; PhoQ-PhoP variant library, added: 10 µM Mg2+; baseline: high Mg2+ state, higher = stronger signaling): 11.7

Repeated from above (series 3):
AAACATTT: 0.327
GATGTGAC: -0.0693
ACATCAGG: 0.0985
AGGTGTGA: -0.0429
